Assay results from different studies.
Each line is one published result; not all experiments were run side by side. Several values in a cell are separate wells, animals, samples, runs or records. Values after ≈ are worked out from the molar mass of the structure shown.
Organism: Staphylococcus aureus

Structure (SMILES) = CC[C@H](C)[C@H](NC(=O)[C@H](C)NC(=O)[C@H](CCCCN)NC(=O)[C@H](CC(C)C)NC(=O)[C@H](C)NC(=O)[C@@H](NC(=O)[C@H](Cc1c[nH]cn1)NC(=O)[C@H](CC(C)C)NC(=O)[C@@H](NC(=O)[C@@H](NC(=O)[C@H](CCCCN)NC(=O)[C@H](C)NC(=O)[C@H](C)NC(=O)[C@H](CO)NC(=O)[C@H](CCCCN)NC(=O)[C@H](Cc1ccccc1)NC(=O)[C@@H](NC(=O)[C@H](CCCCN)NC(=O)[C@H](CC(C)C)NC(=O)[C@H](Cc1ccccc1)NC(=O)[C@H](CO)NC(=O)[C@H](CCCCN)NC(=O)[C@H](Cc1c[nH]c2ccccc12)NC(=O)[C@H](CCCCN)NC(C)=O)[C@@H](C)O)[C@@H](C)O)C(C)C)[C@@H](C)O)C(=O)N[C@@H](CO)C(=O)N[C@@H](CO)C(N)=O; test system = MSSA; conditions = 67 strains; quantity = MIC50; result = 4 µg/mL (≈ 1.36 µM)
Structure (SMILES) = CC(=O)NC[C@H]1CN(c2ccc(N3CCOCC3)c(F)c2)C(=O)O1; test system = MRSA strain 4, vancomycin-induced; conditions = 20 generations; quantity = MIC; result = 0.5 µg/mL (≈ 1.48 µM)
Structure (SMILES) = CC[C@H](C)[C@H](NC(=O)[C@H](CCCCN)NC(=O)[C@H](CCCCN)NC(=O)[C@H](Cc1ccccc1)NC(=O)[C@@H](NC(=O)[C@@H](NC(=O)[C@H](CCCNC(=N)N)NC(=O)[C@H](Cc1ccccc1)NC(=O)[C@@H](NC(=O)[C@H](CCCCN)NC(=O)[C@H](CCCCN)NC(=O)[C@@H](N)CCSC)[C@@H](C)CC)C(C)C)[C@@H](C)CC)C(=O)N[C@@H](CC(C)C)C(=O)N[C@@H](CCCCN)C(=O)N[C@@H](CCCNC(=N)N)C(=O)N[C@@H](CC(C)C)C(=O)N[C@H](C(=O)N[C@H](C(=O)O)C(C)C)[C@@H](C)CC; assay = broth microdilution; test system = ATCC 25923; conditions = 20% fetal bovine serum; quantity = MIC; result = 8 µg/mL (≈ 3.52 µM)
Structure (SMILES) = CN[C@H](CC(C)C)C(=O)N[C@H]1C(=O)N[C@@H](CC(N)=O)C(=O)N[C@H]2C(=O)N[C@H]3C(=O)N[C@H](C(=O)N[C@H](C(=O)O)c4cc(O)cc(O)c4-c4cc3ccc4O)[C@H](O)c3ccc(c(Cl)c3)Oc3cc2cc(c3O[C@@H]2O[C@H](CO)[C@@H](O)[C@H](O)[C@H]2O[C@H]2C[C@](C)(N)[C@H](O)[C@H](C)O2)Oc2ccc(cc2Cl)[C@H]1O; test system = MRSA strain 5; quantity = MIC; result = 1 µg/mL (≈ 0.69 µM)
Structure (SMILES) = CCCCCCCCCC(=O)N[C@@H](Cc1c[nH]c2ccccc12)C(=O)N[C@H](CC(N)=O)C(=O)N[C@@H](CC(=O)O)C(=O)N[C@@H]1C(=O)NCC(=O)N[C@@H](CCCN)C(=O)N[C@@H](CC(=O)O)C(=O)N[C@H](C)C(=O)N[C@@H](CC(=O)O)C(=O)NCC(=O)N[C@H](CO)C(=O)N[C@@H]([C@H](C)CC(=O)O)C(=O)N[C@@H](CC(=O)c2ccccc2N)C(=O)O[C@@H]1C; assay = broth microdilution; test system = VISA LIM strain 2, Mueller-Hinton broth, Mg2+ 10 mg/L; conditions = 16 h, with: Ca2+ 1.0 mM; quantity = MIC; result = 1 µg/mL (≈ 0.617 µM)
Structure (SMILES) = CC(C)C[C@H](NC(=O)CNC(=O)CNC(=O)CNC(=O)[C@H](Cc1ccc(O)cc1)NC(=O)[C@H](CC(C)C)NC(=O)[C@@H](NC(=O)CNC(=O)[C@H](Cc1ccc(O)cc1)NC(=O)[C@H](CCCCN)NC(=O)[C@H](CC(N)=O)NC(=O)[C@@H](NC(=O)[C@H](CCCCN)NC(=O)[C@H](Cc1c[nH]c2ccccc12)NC(=O)CN)[C@@H](C)O)[C@@H](C)O)C(=O)N[C@@H](CCCCN)C(=O)N[C@@H](CCCCN)C(=O)N[C@@H](CC(C)C)C(=O)N[C@@H](CC(C)C)C(=O)N[C@@H](CC(C)C)C(=O)N[C@@H](CC(C)C)C(=O)N[C@@H](CC(C)C)C(=O)N[C@@H](CCCCN)C(=O)N[C@@H](CCCCN)C(=O)N[C@@H](CC(C)C)C(=O)NCC(=O)O; test system = ATCC 25923; conditions = with: 150 mM NaCl; quantity = MIC; result = 16 µg/mL (≈ 5.59 µM)
Structure (SMILES) = CN[C@H](CC(C)C)C(=O)N[C@H]1C(=O)N[C@@H](CC(N)=O)C(=O)N[C@H]2C(=O)N[C@H]3C(=O)N[C@H](C(=O)N[C@H](C(=O)O)c4cc(O)cc(O)c4-c4cc3ccc4O)[C@H](O)c3ccc(c(Cl)c3)Oc3cc2cc(c3O[C@@H]2O[C@H](CO)[C@@H](O)[C@H](O)[C@H]2O[C@H]2C[C@](C)(N)[C@H](O)[C@H](C)O2)Oc2ccc(cc2Cl)[C@H]1O; test system = CAAS-2019-CAAS-2019-09 clinical blaZ-resistant isolate, 25% plasma; quantity = MBC; result = 8 µg/mL (≈ 5.52 µM)
Structure (SMILES) = C=CC[C@@H]1c2ccc(OC)c(OC)c2CN2CCc3cc4c(cc3[C@H]12)OCO4; test system = P2rx7 A312V/A312V mice, skin wound infection; conditions = dose not given, day 7; how to read = reference: day 0; quantity = relative wound size; result = 1.23 and 0.87 and 0.75 and 1.02 and 0.6 and 0.69
Structure (SMILES) = Cc1c2c(nn1C)CSCc1cc(n(C)n1)CSc1cc(c3ccccc3c1)OCCCc1c(C(=O)O)n(C)c3c-2c(Cl)ccc13; assay = label-free proteomics, refers to: rpmC; test system = SA113; conditions = concentration not given; how to read = reference: untreated; quantity = log2 fold change; result = 3.84
